Published values from different studies.
A part holds a random share of what one study measured.

Series 1
Target: Fragile X messenger ribonucleoprotein 1, C-terminal low-complexity region (Fmr1, Mus musculus, UniProt P35922)
Method: RNA Bind-n-Seq
Molecule type: RNA
Medium: in vitro
Tested at: 200 nM
Notes: whole 134-nt RNA, ends assumed
With: 150 mM LiCl
Relative to: input library
Direction: higher = stronger binding
Library: 7-deaza-guanosine replaces G
All sequences stand within: GGGAGUUCUACAGUCCGACGAUC … UGGAAUUCUCGGGUGUCAAGG
Oligonucleotide	log2 enrichment
UCCUCAAGUCCUGUGCUACACAUCGUAUGUACCGAAUCGGCGGCGGGCGGGGAAAGUAUUAUGUUACGCCGUUCGGAUCUGCACUUCCAG	0.975
UGGCCCUGGUGGCAUGCGGGGAGGAAGAGGUGGCCACAUGGAUCGUGGUGGUCCCGGUGGAAUGUUCAGAGGUGGCCGUGGUGGAGACAG	0.0162
GUCCUGUGCUACACAUCGUAUGUACCGAAUCGGGGUUUUUGGUUUUUGGUUUUUGGGGAAAGUAUUAUGUUACGCCGUUCGGAUCUGCAC	-1.56
UGGGAGGUGGAUUUUGUUUAUUUUUUUAGCUCAUUUCCAAGGGUGGGAAUUUUUUUUUAAUAUGUGUCAUGAAUAAAGUUGUUUUUGAAA	0.718
AGUCCUGUGCUACACAUCGUAUGUACCGAAUCGGGGAAAAGGGAAAAGGGGAAAAGGGAAAGUAUUAUGUUACGCCGUUCGGAUCUGCAC	-0.285

Series 2
Target: RING finger protein unkempt homolog, zinc fingers 1-6, GST-SBP tag (UNK, Homo sapiens, UniProt Q9C0B0, residues 30-357)
Method: RNA Bind-n-Seq
Molecule type: RNA
Medium: in vitro
Tested at: not given
Notes: RNA with constant flanks, human and mouse sites, ends assumed
Relative to: input RNA pool
Direction: higher = stronger binding
All sequences stand within: GGGAGUUCUACAGUCCGACGAUC … CAACAGAGGAUUGAGCAUCA
Construct (chain): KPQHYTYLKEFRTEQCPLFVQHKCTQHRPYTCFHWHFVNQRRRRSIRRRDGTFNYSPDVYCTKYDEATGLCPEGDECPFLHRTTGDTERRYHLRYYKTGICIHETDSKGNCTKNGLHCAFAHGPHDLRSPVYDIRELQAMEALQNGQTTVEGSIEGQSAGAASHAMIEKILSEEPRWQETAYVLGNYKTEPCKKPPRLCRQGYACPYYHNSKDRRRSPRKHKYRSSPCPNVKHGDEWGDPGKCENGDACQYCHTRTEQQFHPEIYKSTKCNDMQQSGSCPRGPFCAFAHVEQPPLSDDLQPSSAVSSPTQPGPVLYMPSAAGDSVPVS
Oligonucleotide	bound/input enrichment [ratio]
AACCCCAAUGCCUGCAGCUACGGUGUGACUGUGGGUGUGUUGGCCUUCCUCACCUGCCUGCUCUACCUGGCGCUCGAUGUGUACUUCCCGCAGAUCAGCAGUGUCAAGGACCGCAAGAAG	0.118
AUUUGGUCAAGAUACUCACUUGUAAUUAUUCCAAAAAAUUGGAGUCUGUUUGCUGUUAAUUUCUUUGUGGGGGCAGCAGGAGCCUCUCAGCUUUUUCGUAUUUGGAGAUAUAACCAAGAA	0.242
CUGAUUUGUUUUGUGAUUUUUAACUUAUGAGGCAAGAAAGGUCUUCCUUCAAUAUUGUCUCUUAGGGAAUCUCUCUCUCAGUGUUUGAACUUAACUUGUGCUUGAAAUUCUACAGUUUCA	0.0942
UGUUGAUGACUUCUUGUGGCAUUUCACACACUGUAGAUGGUCACUCCCUUCAUGUCCAUGUUAGCUCAUGGUGUAAGAUGAUGUCUUGUCAGUAUUACUGUUUUGCUAAGCCGCUUCAUU	0.0832
ACUGUGGUUUAUGGGCCACCUCCUGCUGGGGCCCCCAUCAUAUACGGACCUCCUCCUGCCAACUUCGCUGUUCCCCUUGUCCCCGCGGGUGUGCAGCAUUGCAACAUCCCAGAGCACCAU	0.076
ACUAAGACCGAGUAUGAACCUGACCGCAAGAAAGGGAAAGCACGUCCUCCCCAAAUUGCUGAGUUCACCGUCAGCAUCACGGAGGGUGUCACCGAGAGGUUUAAGGUCUCCGUGUUGGUC	0.0571

Series 3
Target: RNA binding protein fox-1 homolog 2, RRM domain, GST-SBP tag (RBFOX2, Homo sapiens, UniProt O43251-10, residues 100-194)
Method: RNA Bind-n-Seq
Molecule type: RNA
Medium: in vitro
Tested at: 365 nM
Notes: natural RNA segment, single round, ends assumed
Relative to: no-protein control
Direction: higher = stronger binding
All sequences stand within: GGGAGUUCUACAGUCCGACGAUC … UGGAAUUCUCGGGUGCCAA
Residues (chain): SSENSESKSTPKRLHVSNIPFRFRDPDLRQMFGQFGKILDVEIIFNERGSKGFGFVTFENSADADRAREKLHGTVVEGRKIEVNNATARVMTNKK
Oligonucleotide	RBNS enrichment (R)
CAUGAUCAUUUGCUCCUGCUCUAAUUUUAAUGUGCAUACAAAAAAUAUACCAAAAAUGUUAUUGUAAUUUUAAUGAGCAUGUAAAGAGUGUAUCAAAAAUUGAUGGGAUA	0.444
AGGCCCCCCGAAGCCCUGUGAACCACCUGCUGCCCUGUGAGGCCCCCAAAGCCCUGUGAACUGCCUGCUGUCCUGUGAACUGCCUGCUGCCCUGUGAGGUGUGGGAGCCC	1.01
CCUAAACCCACUACUGCCAAAGAACCCAGCAACAAACCUCCCGGCUAGGAGCUUUAGAAGUCUUUAUGUUCUUCCUGCCAUCAUUCCUCCUUUUCCCACAGGGAAAGAAA	0.545
ACUAAGUUAAUUUAGUAUAAAAAUAGAAUUGAUAGUGAGGGUAUAAAGUGUAACCAUCAGUUAAACCUCUCCUGUCAUUCCUGGCUUCCUUGCUUCAGAAUUGAAAUGGA	0.258
UUAACACUGCUAGGUAGCUCAGACAUAUCAGAAAAUCCAUAGUGGCCUGAGUUGUAAAUCCAAAACAUAUUUUUGUUGGCUUGGGACGUUAGGGGCUUGGGGUUUUCCUG	0.34
AAGGGCAAUGUUUUUCUGUAACAUAUUGGAAAAAGAAAAUGCAGUUAUAUUCCUUUUUUAUUUGUUCCUUUAGUUUGUUUUGGUUCAGCAGUCAGCAGUUAAGUAUAUAA	0.927
GUACCUGCCCCAACAGCCCCCCAUCAUCUGAUUUUGGGUGUGACCCCUCGAGUGUGCAUGCCACCCUGGGGCUCUUCUCAGUCCUGGGCCCAAGUCCCUGAAGCCUAGCA	9.27

Further values, each from its own experiment
Molecule	target	assay	system	setting	how to read	measurement	value
PhoQ, residues 284 288 289 292 302 303 SLCLSL	PhoP, residues 12 14 15 18 19 NQAHL (Escherichia coli, UniProt P23836)	Sort-seq, item: YFP reporter	E. coli	PhoQ-PhoP variant library, with: 10 µM Mg2+	relative to: high Mg2+ state, higher = stronger signaling	fold induction	15.9

For quick reference, copied from above (series 3):
Oligonucleotide	RBNS enrichment (R)
CCUAAACCCACUACUGCCAAAGAACCCAGCAACAAACCUCCCGGCUAGGAGCUUUAGAAGUCUUUAUGUUCUUCCUGCCAUCAUUCCUCCUUUUCCCACAGGGAAAGAAA	0.545
ACUAAGUUAAUUUAGUAUAAAAAUAGAAUUGAUAGUGAGGGUAUAAAGUGUAACCAUCAGUUAAACCUCUCCUGUCAUUCCUGGCUUCCUUGCUUCAGAAUUGAAAUGGA	0.258
